Results pooled from the literature.
Compare with care: the assays were run in different laboratories. “And” joins repeats or separate records; there may be more than shown.
LRRK2 G2019S: Leucine-rich repeat serine/threonine-protein kinase 2 (LRRK2, Homo sapiens, UniProt Q5S007, G2019S)
LRRK2: Leucine-rich repeat serine/threonine-protein kinase 2 (LRRK2, Homo sapiens, UniProt Q5S007)

Structure (SMILES) = C=CC(=O)Nc1cccc(-c2cnc3[nH]cc(C(=O)NC(C)(C)C)c3n2)c1; target = LRRK2 G2019S; test = kinase activity; conditions = 0.1 µM; endpoint = inhibition; result = 63% and 62%
Structure (SMILES) = CCn1cc(C(=O)O)c(=O)c2c(N)c(F)c(NC3CCCCC3)cc21; target = LRRK2; test = kinase activity; conditions = 0.1 µM, with: ATP at Km; endpoint = inhibition; result = -10.7%
Structure (SMILES) = CC(C)=CC1OC(C)(C)C2C=C3C(=O)C(Cl)=CC(O)C3C3C(O)C4OC4C(=O)C132 (stereo not drawn); target = LRRK2 G2019S; test = cell-free assay, competition with immobilised ligand; conditions = 10 µM; endpoint = remaining binding; result = 95%
Structure (SMILES) = Nc1ncc2c(n1)-c1c([nH]c3ccc(C4=CCOCC4)cc13)CCC2; target = LRRK2; test = binding, competition with immobilised ligand; conditions = 1 µM; endpoint = remaining binding; result = 80%
Structure (SMILES) = NC(=O)[C@@H](O)C[C@H]1CCc2sc3ncnc(O[C@H]4CC[C@H](N5CCOCC5)CC4)c3c21; target = LRRK2; test = enzyme activity, inhibitor; conditions = 10 µM; endpoint = inhibition; result = 7%
Structure (SMILES) = Cc1cccc(O[C@H]2CCC[C@@H](C(C)CNCc3ccncc3)C2)c1 (relative stereo); target = LRRK2 G2019S; test = enzyme activity, inhibitor; conditions = 1 µM; endpoint = inhibition; result = 0%
Structure (SMILES) = COc1ccc(NC(=O)Nc2ccc3c(c2)C(=O)N(C(C)CO)CC(C)C(CN(C)Cc2ccc4c(c2)OCO4)O3)cc1 (stereo not drawn); target = LRRK2; test = kinase activity, KinaseProfiler; conditions = 0.03 µM, species human; scale = baseline: control; endpoint = remaining activity; result = 104%
Structure (SMILES) = CN1CC[C@@H](COc2cnc(C#N)cc2-c2ccn3nc(NC(=O)C4CC4)cc3c2)C1; target = LRRK2; test = enzyme activity, inhibitor; conditions = 1 µM; endpoint = inhibition; result = 17%
Structure (SMILES) = CNC(=O)C1CCN(c2cc(C)c(F)cc2NC(=O)c2ccc(-c3cc(O)ccc3C)c(C)c2)CC1; target = LRRK2 G2019S; test = binding, competition with immobilised ligand; conditions = 1 µM; endpoint = remaining binding; result = 75%
Structure (SMILES) = COc1c(Cl)cccc1Nc1c(-c2ccncc2C#C[C@@]2(C)CCCN2C(=O)/C=C/CN(C)C)[nH]c2c1C(=O)NCC2; target = LRRK2; test = binding, competition with immobilised ligand; conditions = 3 µM; endpoint = remaining binding; result = 86%
Structure (SMILES) = Cc1ccc(-c2c(/C=C(\C#N)C(=O)NC(C)C)n(CCCO)c3ncnc(N)c23)cc1; target = LRRK2 G2019S; test = cell-free assay, competition with immobilised ligand; conditions = 1 µM; endpoint = remaining binding; result = 100%
Structure (SMILES) = C[C@]1(O)CCCN(c2nc(Nc3ccc(S(=O)(=O)N[C@H]4CC[C@H](CN5CCN(c6ccc(C7CCC(=O)NC7=O)cc6F)CC5)CC4)cc3)ncc2C(F)(F)F)C1 (stereo partly drawn); target = LRRK2 G2019S; test = binding, competition with immobilised ligand; conditions = 1 µM; endpoint = remaining binding; result = 21%
Structure (SMILES) = C=CC(=O)N1CCc2ccc(-n3c(=O)ccc4cnc5ccc(-c6cnn(C)c6)cc5c43)cc21; target = LRRK2; test = KINOMEscan; conditions = 1 µM; scale = baseline: DMSO control; endpoint = remaining binding; result = 99%
Structure (SMILES) = Nc1ncc(-c2cc(-c3cnn(CC(F)(F)F)c3)ncc2F)nc1C(=O)NC1CNCC(F)C1 (stereo not drawn); target = LRRK2; test = enzyme activity; conditions = 1 µM; scale = baseline: DMSO control; endpoint = remaining activity; result = 72.9%
Structure (SMILES) = C=CC(=O)N1CCCC(n2c(=O)c3ncccc3n(Cc3ccc(Oc4ccccc4)cc3)c2=O)C1 (stereo not drawn); target = LRRK2; test = cell-free assay, competition with immobilised ligand; conditions = 1 µM; endpoint = remaining binding; result = 72%
Structure (SMILES) = CNC1C[S+]2CC[S+]3CC[S+](C1)[Ru-4]321([N]=C=S)[n]2c3ccc(OC)cc3c3c4c(c5cc(F)c[n+]1c5c32)C(=O)NC4=O (stereo not drawn); target = LRRK2; test = KinomeScan; conditions = 0.1 µM; scale = baseline: untreated; endpoint = remaining binding; result = 85%
Structure (SMILES) = CCN1CCN(Cc2ccc(C(=O)Nc3ccc(C)c(NCc4cnc5[nH]ccc5c4OC)c3)cc2C(F)(F)F)CC1; target = LRRK2; test = binding, competition with immobilised ligand; conditions = 1 µM; endpoint = remaining binding; result = 97%
Structure (SMILES) = Cc1cnc2nc1Nc1cccc(c1)COC/C=C/COCc1cc(ccc1OCCN1CCOCC1)N2; target = LRRK2 G2019S; test = binding; conditions = 0.1 µM; endpoint = remaining binding; result = 100%
